Measured values collected from several papers.
Each numbered part is a random draw from the data of one study; scales do not carry over between parts. Several values in a cell are separate wells, animals, samples, runs or records.
UniProt P06213, sequence (whole entry, looked up): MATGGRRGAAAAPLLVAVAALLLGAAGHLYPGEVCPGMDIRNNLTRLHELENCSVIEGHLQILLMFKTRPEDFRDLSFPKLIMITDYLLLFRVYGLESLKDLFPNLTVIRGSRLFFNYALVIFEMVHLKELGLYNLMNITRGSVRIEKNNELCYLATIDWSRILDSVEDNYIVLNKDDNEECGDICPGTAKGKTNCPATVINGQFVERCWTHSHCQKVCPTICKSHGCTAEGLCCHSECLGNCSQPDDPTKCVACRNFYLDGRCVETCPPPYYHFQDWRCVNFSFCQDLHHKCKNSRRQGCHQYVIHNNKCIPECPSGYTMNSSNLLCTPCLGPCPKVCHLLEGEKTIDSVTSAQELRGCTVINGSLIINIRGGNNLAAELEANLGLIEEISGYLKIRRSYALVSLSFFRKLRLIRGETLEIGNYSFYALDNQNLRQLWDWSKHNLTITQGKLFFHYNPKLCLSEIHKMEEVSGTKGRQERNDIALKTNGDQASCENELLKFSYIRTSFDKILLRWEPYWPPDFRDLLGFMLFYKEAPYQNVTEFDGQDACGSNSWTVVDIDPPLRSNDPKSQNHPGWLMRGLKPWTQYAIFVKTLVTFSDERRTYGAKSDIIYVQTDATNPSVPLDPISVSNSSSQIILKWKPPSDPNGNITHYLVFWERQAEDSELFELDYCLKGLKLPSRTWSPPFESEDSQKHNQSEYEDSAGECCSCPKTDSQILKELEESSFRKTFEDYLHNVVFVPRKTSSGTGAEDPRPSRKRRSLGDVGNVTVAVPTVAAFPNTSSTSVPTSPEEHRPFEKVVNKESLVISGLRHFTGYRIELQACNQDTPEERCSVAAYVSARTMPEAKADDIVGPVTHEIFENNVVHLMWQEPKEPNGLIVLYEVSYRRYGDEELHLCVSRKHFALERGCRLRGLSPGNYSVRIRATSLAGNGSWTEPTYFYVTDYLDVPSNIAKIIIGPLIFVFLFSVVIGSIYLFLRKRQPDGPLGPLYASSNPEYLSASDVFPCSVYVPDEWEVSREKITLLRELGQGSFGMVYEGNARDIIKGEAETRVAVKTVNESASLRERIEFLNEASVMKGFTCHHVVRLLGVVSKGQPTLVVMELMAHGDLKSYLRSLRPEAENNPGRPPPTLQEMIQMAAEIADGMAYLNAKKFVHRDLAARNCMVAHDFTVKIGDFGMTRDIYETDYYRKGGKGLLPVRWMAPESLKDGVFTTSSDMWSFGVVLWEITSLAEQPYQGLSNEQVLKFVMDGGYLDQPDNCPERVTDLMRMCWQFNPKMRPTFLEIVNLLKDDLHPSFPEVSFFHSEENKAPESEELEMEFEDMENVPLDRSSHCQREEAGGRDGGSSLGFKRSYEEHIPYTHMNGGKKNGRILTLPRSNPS
UniProt P05771, sequence (whole entry, looked up): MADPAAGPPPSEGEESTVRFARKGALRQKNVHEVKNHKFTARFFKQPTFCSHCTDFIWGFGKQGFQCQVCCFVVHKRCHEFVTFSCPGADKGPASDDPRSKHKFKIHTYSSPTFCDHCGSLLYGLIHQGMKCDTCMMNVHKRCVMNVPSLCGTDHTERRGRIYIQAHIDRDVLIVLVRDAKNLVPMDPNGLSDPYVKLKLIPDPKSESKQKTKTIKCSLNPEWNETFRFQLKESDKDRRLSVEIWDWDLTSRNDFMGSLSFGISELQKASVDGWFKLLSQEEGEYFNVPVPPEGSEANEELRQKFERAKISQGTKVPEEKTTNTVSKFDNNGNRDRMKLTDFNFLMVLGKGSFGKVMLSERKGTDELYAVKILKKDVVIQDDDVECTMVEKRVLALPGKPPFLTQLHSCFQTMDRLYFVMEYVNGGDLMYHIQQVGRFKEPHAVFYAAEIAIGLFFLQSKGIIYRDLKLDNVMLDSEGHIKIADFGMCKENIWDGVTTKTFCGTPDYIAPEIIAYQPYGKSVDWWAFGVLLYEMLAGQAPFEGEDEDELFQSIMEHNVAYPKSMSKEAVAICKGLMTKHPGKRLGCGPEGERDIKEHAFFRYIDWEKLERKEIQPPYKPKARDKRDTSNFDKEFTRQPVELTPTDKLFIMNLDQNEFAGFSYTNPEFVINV
UniProt P37023, sequence (whole entry, looked up): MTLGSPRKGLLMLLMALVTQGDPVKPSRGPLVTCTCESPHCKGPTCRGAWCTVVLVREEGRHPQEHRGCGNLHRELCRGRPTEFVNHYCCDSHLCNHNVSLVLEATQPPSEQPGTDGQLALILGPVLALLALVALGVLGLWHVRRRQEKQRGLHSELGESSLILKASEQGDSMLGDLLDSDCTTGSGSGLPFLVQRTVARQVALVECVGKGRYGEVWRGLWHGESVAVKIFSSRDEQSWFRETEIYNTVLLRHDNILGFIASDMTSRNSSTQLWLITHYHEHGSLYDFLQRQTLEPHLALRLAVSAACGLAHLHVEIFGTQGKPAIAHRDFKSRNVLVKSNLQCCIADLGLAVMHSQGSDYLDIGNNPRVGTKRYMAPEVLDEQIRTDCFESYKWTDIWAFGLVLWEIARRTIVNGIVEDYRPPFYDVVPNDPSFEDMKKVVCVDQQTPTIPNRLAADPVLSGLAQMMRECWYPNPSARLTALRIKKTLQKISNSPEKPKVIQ
UniProt P35626, sequence (whole entry, looked up): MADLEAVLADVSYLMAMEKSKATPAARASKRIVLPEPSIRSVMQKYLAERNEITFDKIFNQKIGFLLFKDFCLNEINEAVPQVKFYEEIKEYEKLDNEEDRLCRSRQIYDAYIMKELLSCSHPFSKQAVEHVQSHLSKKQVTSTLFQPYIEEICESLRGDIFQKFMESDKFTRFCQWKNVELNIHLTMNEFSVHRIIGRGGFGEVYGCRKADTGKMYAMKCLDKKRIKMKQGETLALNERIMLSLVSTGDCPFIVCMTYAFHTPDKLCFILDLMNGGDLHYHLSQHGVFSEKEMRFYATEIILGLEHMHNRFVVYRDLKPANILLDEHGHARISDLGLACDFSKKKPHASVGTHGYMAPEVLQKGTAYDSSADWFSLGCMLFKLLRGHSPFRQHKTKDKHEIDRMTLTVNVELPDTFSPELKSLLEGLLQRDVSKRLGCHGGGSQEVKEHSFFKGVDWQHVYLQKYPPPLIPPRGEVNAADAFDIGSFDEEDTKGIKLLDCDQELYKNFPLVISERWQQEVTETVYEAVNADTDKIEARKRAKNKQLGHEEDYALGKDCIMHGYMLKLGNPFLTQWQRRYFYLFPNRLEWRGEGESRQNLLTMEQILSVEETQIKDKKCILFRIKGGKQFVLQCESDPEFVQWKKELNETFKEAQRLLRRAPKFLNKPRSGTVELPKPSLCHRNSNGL
UniProt Q13557, sequence (whole entry, looked up): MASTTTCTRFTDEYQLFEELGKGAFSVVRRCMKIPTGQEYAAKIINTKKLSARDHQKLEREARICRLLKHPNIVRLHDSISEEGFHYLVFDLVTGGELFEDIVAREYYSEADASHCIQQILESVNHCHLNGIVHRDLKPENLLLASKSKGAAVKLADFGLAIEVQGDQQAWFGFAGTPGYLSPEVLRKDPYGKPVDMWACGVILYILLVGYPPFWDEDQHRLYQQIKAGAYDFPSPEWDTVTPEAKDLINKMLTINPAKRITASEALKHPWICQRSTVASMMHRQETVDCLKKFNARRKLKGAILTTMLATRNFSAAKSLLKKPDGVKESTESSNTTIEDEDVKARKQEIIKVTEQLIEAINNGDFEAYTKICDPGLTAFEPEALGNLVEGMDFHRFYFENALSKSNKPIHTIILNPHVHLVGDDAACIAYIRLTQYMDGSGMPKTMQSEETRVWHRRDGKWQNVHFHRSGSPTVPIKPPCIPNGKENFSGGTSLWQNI
UniProt Q14164, sequence (whole entry, looked up): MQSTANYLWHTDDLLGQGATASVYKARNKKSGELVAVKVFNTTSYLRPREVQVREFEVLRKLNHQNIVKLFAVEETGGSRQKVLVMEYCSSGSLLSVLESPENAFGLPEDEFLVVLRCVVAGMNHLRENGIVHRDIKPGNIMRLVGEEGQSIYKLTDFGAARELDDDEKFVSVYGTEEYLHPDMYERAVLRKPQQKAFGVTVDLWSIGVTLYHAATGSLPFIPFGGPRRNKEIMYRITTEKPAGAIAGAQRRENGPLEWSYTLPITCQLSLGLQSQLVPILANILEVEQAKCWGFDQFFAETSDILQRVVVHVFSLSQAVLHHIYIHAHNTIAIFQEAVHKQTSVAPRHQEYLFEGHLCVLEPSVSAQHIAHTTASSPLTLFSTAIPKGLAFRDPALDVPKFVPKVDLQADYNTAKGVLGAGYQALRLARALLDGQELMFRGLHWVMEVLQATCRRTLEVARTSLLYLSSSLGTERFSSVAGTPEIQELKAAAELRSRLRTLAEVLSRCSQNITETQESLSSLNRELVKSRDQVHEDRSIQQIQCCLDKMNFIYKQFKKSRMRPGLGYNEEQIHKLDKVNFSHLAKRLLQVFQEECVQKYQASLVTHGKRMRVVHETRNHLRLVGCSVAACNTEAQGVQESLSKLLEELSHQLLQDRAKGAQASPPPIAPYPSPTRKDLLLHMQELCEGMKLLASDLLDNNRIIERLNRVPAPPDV
UniProt Q9UIK4, sequence (whole entry, looked up): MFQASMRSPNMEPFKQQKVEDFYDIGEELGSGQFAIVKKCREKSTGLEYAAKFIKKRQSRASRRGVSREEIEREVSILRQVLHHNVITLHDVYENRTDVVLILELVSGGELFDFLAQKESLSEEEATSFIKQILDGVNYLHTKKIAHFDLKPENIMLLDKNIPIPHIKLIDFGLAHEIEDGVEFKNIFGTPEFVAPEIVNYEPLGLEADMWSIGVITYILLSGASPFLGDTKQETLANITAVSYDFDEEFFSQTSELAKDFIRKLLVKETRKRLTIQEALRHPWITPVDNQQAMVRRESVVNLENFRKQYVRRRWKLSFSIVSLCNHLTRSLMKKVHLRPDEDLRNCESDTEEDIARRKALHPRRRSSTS

Block 1
Structure (SMILES): CN(C)CCCn1cc(C2=C(c3c[nH]c4ccccc34)C(=O)NC2=O)c2ccccc21
Read-out: enzyme activity
Mode: inhibitor
Concentration: 0.5 µM
Relative to: control
The remaining activity was 3.24% (Protein kinase C beta type, isoform beta-I (PRKCB, Homo sapiens, UniProt P05771)).
GRK3 (Homo sapiens, UniProt P35626) — remaining activity: 99%.
STK11 (Homo sapiens, UniProt Q15831) — remaining activity: 92.8%.
It gave 38.7% for remaining activity (CAMK2D (Homo sapiens, UniProt Q13557)).
For Cyclin-dependent kinase 4, with cyclin D1 (CDK4, Homo sapiens, UniProt P11802): remaining activity read 60.7%.
The remaining activity was 119% (IKBKB (Homo sapiens, UniProt O14920)).
It gave 91.9% for remaining activity (STK39 (Homo sapiens, UniProt Q9UEW8)).
NEK2 (Homo sapiens, UniProt P51955) — remaining activity: 96.2%.
The remaining activity was 97.4% (OXSR1 (Homo sapiens, UniProt O95747)).
The remaining activity was 104% (Tyrosine-protein kinase Lyn, isoform B (LYN, Homo sapiens, UniProt P07948)).
For TGFBR1 (Homo sapiens, UniProt P36897): remaining activity read 102%.
It gave 98.7% for remaining activity (MAPK9 (Homo sapiens, UniProt P45984)).
It gave 105% for remaining activity (DAPK2 (Homo sapiens, UniProt Q9UIK4)).
The remaining activity was 59.3% (cGMP-dependent protein kinase 1, isoform beta (PRKG1, Homo sapiens, UniProt Q13976)).
TGFBR2 (Homo sapiens, UniProt P37173) — remaining activity: 90.4%.
It gave 87.9% for remaining activity (DAPK1 (Homo sapiens, UniProt P53355)).
For STK10 (Homo sapiens, UniProt O94804): remaining activity read 19.4%.
The remaining activity was 89.4% (IKBKE (Homo sapiens, UniProt Q14164)).
MAP3K3 (Homo sapiens, UniProt Q99759) — remaining activity: 97%.
It gave 80.2% for remaining activity (Cyclin-dependent kinase 5, with p25 (CDK5, Homo sapiens, UniProt Q00535)).
The remaining activity was 59.8% (CAMKK2 (Homo sapiens, UniProt Q96RR4)).
The remaining activity was 68.5% (CHEK2 (Homo sapiens, UniProt O96017)).

Block 2
Compound: CNC(=O)Nc1ccc2c(c1)CC[C@@]21OC(=O)N(CC(=O)N(Cc2ccc(F)cc2)[C@@H](C)C(F)(F)F)C1=O
Technique: competition with immobilised ligand
Concentration: 1 µM
For ACVRL1 (Homo sapiens, UniProt P37023); binding: remaining binding read 72%.
BRSK2 (Homo sapiens, UniProt Q8IWQ3); cell-free assay — remaining binding: 70%.
The remaining binding was 100% (PLK4 (Homo sapiens, UniProt O00444); cell-free assay).
For ALK (Homo sapiens, UniProt Q9UM73, L1196M); cell-free assay: remaining binding read 75%.
It gave 82% for remaining binding (GRK1 (Homo sapiens, UniProt Q15835); cell-free assay).
The remaining binding was 100% (TRPM6 (Homo sapiens, UniProt Q9BX84); cell-free assay).
For Tyrosine-protein kinase ABL1, phosphorylated (ABL1, Homo sapiens, UniProt P00519, H396P); cell-free assay: remaining binding read 74%.
For Insulin receptor (INSR, Homo sapiens, UniProt P06213); cell-free assay: remaining binding read 81%.
Mast/stem cell growth factor receptor Kit, autoinhibited (KIT, Homo sapiens, UniProt P10721); cell-free assay — remaining binding: 97%.
For DYRK2 (Homo sapiens, UniProt Q92630); cell-free assay: remaining binding read 88%.
Tyrosine-protein kinase ABL1, phosphorylated (ABL1, Homo sapiens, UniProt P00519, E255K); cell-free assay — remaining binding: 75%.
It gave 82% for remaining binding (MAP3K20 (Homo sapiens, UniProt Q9NYL2); cell-free assay).

Block 3
Cell line: mouse MPNST tumor cells
Technique: high-content nuclear imaging
Measured: cell number
Concentration: 10 µM
Time: 12 h
Setting: mean of 2 replicates
Relative to: plate mean
Reading: higher = more cells
With CCN(CC)CCCC(C)Nc1c2ccc(Cl)cc2nc2ccc(OC)cc12 (stereo not shown) the nuclei count was -4.45 z-score.
For Cc1cn2c(N)c(Cl)cc(C(=O)NCC3CCN(CC(C)C)CC3)c2n1, the nuclei count was 1.02 z-score.
CN1CCCCC1CCN1c2ccccc2Sc2ccc([S+](C)[O-])cc21 (stereo not shown) gave a nuclei count of 2.33 z-score.
The nuclei count of Cn1cc(C2=C(c3cn(CCCSC(=N)N)c4ccccc34)C(=O)NC2=O)c2ccccc21 is reported as -4.45 z-score.
Cc1cccc(-c2[nH]c(C(C)(C)C)nc2-c2ccc3nccnc3c2)n1 gave a nuclei count of -2.92 z-score.
The nuclei count of CCn1cc(C(=O)O)c(=O)c2cc(F)c(N3CCNC(C)C3)c(F)c21 (stereo not shown) is reported as 0.0962 z-score.
For Cc1ccc(N(CC2=NCCN2)c2cccc(O)c2)cc1, the nuclei count was -1.45 z-score and -2.24 z-score.
The nuclei count of COc1ccc(/C=C/c2nc(NCCCN(C)C)c3ccccc3n2)cc1 is reported as -6.35 z-score.
CNCC[C@@H](Oc1cccc2ccccc12)c1cccs1 has a nuclei count of -4.29 z-score.
For Nc1nc2c(ncn2COC(CO)CO)c(=O)[nH]1, the nuclei count was -0.0275 z-score and 0.709 z-score.
For COc1ccc(-c2ccc3cc(C(=O)O)ccc3c2)cc1C12CC3CC(CC(C3)C1)C2, the nuclei count was 0.622 z-score and -1.51 z-score.
For Nc1nc(=O)c2nc(CNc3ccc(C(=O)N[C@@H](CCC(=O)O)C(=O)O)cc3)cnc2[nH]1, the nuclei count was 0.256 z-score.

Block 4
Cell line: A-375
Concentration: 100 µM
Time: 18 h
The viability of COCCCN1CCC(NC(=O)c2cc(Cl)c(N)c3c2OCC3)CC1 is reported as 95.1%.
For CC(N)CCCC(C)(C)O (stereo not shown), the viability was 78.7%.
For Cc1cc(=O)n(-c2ccccc2)n1C, the viability was 101%.
COc1ccc(C(C)=O)c(O)c1 has a viability of 102%.
With CCNC(=O)[C@@H]1CCCN1C(=O)[C@H](CCCNC(=N)N)NC(=O)[C@H](CC(C)C)NC(=O)[C@@H](C)NC(=O)[C@H](Cc1ccc(O)cc1)NC(=O)[C@H](CO)NC(=O)[C@H](Cc1c[nH]c2ccccc12)NC(=O)[C@H](Cc1c[nH]cn1)NC(=O)[C@@H]1CCC(=O)N1 the viability was 89.7%.
For O[C@H](CNC[C@@H](O)[C@H]1CCc2cc(F)ccc2O1)[C@@H]1CCc2cc(F)ccc2O1, the viability was 8.64%.

Excerpt of the above (block 3):
The nuclei count of Cn1cc(C2=C(c3cn(CCCSC(=N)N)c4ccccc34)C(=O)NC2=O)c2ccccc21 is reported as -4.45 z-score.
Cc1cccc(-c2[nH]c(C(C)(C)C)nc2-c2ccc3nccnc3c2)n1 gave a nuclei count of -2.92 z-score.
The nuclei count of CCn1cc(C(=O)O)c(=O)c2cc(F)c(N3CCNC(C)C3)c(F)c21 (stereo not shown) is reported as 0.0962 z-score.
